Published values pooled from the literature.
Lines come from different studies, so protocols differ. ± marks the error that the study gave.
APP: Amyloid-beta precursor protein (APP, Homo sapiens, UniProt P05067)
Sequence of UniProt P05067 (whole entry, looked up): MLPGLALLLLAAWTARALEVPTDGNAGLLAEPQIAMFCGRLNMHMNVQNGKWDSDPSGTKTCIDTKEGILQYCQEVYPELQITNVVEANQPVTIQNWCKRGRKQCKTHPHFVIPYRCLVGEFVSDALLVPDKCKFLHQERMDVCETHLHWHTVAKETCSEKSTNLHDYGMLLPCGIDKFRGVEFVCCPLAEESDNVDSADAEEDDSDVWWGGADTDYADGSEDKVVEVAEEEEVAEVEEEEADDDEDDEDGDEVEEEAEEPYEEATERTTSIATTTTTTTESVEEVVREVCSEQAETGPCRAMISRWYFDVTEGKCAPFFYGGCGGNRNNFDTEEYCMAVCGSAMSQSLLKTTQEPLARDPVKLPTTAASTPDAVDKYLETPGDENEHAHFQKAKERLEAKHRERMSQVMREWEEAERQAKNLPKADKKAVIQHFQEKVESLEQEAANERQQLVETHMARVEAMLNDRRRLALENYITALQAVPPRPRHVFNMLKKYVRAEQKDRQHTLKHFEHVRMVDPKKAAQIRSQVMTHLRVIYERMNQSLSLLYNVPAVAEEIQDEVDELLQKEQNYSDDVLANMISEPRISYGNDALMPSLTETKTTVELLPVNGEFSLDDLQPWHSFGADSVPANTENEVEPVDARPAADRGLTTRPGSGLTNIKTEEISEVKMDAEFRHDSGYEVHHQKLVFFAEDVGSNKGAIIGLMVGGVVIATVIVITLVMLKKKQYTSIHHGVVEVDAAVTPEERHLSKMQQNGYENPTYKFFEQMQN
APP Aβ42 aggregates: Amyloid-beta precursor protein, Aβ42 aggregates (APP, Homo sapiens, UniProt P05067)
APP monomer: Amyloid-beta precursor protein, monomer (APP, Homo sapiens, UniProt P05067)
APP Aβ40 fibrils: Amyloid-beta precursor protein, Aβ40 fibrils (APP, Homo sapiens, UniProt P05067)
APP Aβ40: Amyloid-beta precursor protein, Aβ40 (APP, Homo sapiens, UniProt P05067)

Compound | target | assay | system | conditions | scale | measurement | value
CCCC[C@@H]1NC(=O)[C@@H](CC(C)C)NC(=O)[C@H](CCCCN)NC(=O)NNC(=O)[C@H](Cc2c[nH]cn2)NC(=O)[C@@H](Cc2c[nH]c3ccccc23)NC1=O | APP | aggregation, thioflavin T fluorescence | – | 0.1 molar ratio, 37 °C, with: 25 µM amyloid-beta | – | inhibition | 75%
CC[C@H](C)[C@H](NC(=O)[C@@H]1CCCN1C(=O)[C@@H](N)C(C)C)C(=O)N[C@@H](C)C(N)=O | APP | amyloid aggregation, inhibitor, fluorescence | – | 2 µM, 24 h | – | inhibition | 31.8%
COCCOCCOCCOC(=O)C(C#N)=Cc1ccc2cc(N3CCCCC3)ccc2c1 | APP Aβ42 aggregates | binding, fluorescence spectroscopy | PBS | 4 µM, with: pre-aggregated Aβ(1-42) 5 µM | – | excitation maximum | 440 nm
[123I]c1ccc2nc(-c3ccc(-n4ccnn4)nc3)cn2c1 | Amyloid-beta precursor protein, amyloid-beta (APP, Homo sapiens, UniProt P05067) | SPECT | healthy controls, posterior cingulate | 120 to 210 min | baseline: cerebellum | SUVR | 0.84 ± 0.04
CC[C@H](C)[C@H](NC(=O)[C@@H](NC(=O)C(C)(C)N)C(C)C)C(=O)N[C@@H](C)C(N)=O | APP | amyloid aggregation, inhibitor, fluorescence | – | 4 µM, 24 h | – | inhibition | 66%
CCCCN(CCCC)c1ccc(C=C(C#N)C(=O)OCCOCCOCCOC)cc1 | APP Aβ42 aggregates | binding, fluorescence spectroscopy | PBS | 4 µM, with: pre-aggregated Aβ(1-42) 5 µM | – | excitation maximum | 440 nm
CC(C)C[C@@H]1NC(=O)CN(C)C(=O)CCCC(=O)NCCCC[C@@H](C(=O)N[C@@H](CCCNC(=N)N)C(N)=O)NC(=O)[C@H](Cc2ccccc2)NC(=O)[C@H](Cc2ccccc2)NC(=O)[C@H](C(C)C)NC1=O | APP monomer | amyloid aggregation, inhibitor, fluorescence | – | 40 µM, pH 7.4 | – | inhibition | 78.5%
COCCOCCOCCOC(=O)/C(C#N)=C/c1ccc2cc(NCCN3CCOCC3)ccc2c1 | APP Aβ42 aggregates | fluorescence | – | free probe, 5% DMSO in water | – | emission maximum | 570 nm
OC(Cc1cc(-c2ccc(C(O)C(F)(F)F)s2)sc1-c1ccc(-c2sc(-c3ccc(C(O)C(F)(F)F)s3)cc2CC(O)C(F)(F)F)s1)C(F)(F)F (stereo not shown) | Amyloid-beta precursor protein, Aβ40 aggregates (APP, Homo sapiens, UniProt P05067) | fluorescence | – | Aβ aggregated 200 min | baseline: tau Kd over Aβ Kd | Kd ratio | 47
CC[C@H](C)[C@H](NC(=O)[C@@H](NC(=O)[C@@H](N)C(C)C)C(C)C)C(=O)N[C@@H](C)C(N)=O | APP | amyloid aggregation, inhibitor, fluorescence | – | 2 µM, 24 h | – | inhibition | 58.8%
CC(C)C[C@@H]1NC(=O)CN(C)C(=O)CCC(=O)NCCCC[C@@H](C(=O)N[C@@H](CCCNC(=N)N)C(N)=O)NC(=O)[C@H](Cc2ccccc2)NC(=O)[C@H](Cc2ccccc2)NC(=O)[C@H](C(C)C)NC1=O | APP monomer | amyloid aggregation, inhibitor, fluorescence | – | 40 µM, pH 7.4 | – | inhibition | 76.1%
O=C(C=Cc1ccc(O)c(OC(F)(F)F)c1)C(CCOCCOCCOCCO)C(=O)C=Cc1ccc(O)c(OC(F)(F)F)c1 (stereo not shown) | APP | Aβ aggregation, SDS-PAGE western blot, item: Aβ1-42 75-200 kDa band | – | 30 µM, 24 h, 37 °C, with: Aβ1-42 10 µM | baseline: DMSO | band density | 652 ± 112%
COCCOCCOCCOCCOC(=O)/C(C#N)=C/c1ccc2cc(N3CCCCC3)ccc2c1 | APP Aβ42 aggregates | fluorescence | – | with: aggregated Abeta42 5 µM | – | emission maximum | 550 nm
CC(C)C[C@@H]1NC(=O)CN(C)C(=O)CCC(=O)NCCCC[C@@H](C(=O)N[C@@H](CCCNC(=N)N)C(N)=O)NC(=O)[C@H](Cc2ccccc2)NC(=O)[C@H](Cc2ccccc2)NC(=O)c2ccccc2NC1=O | APP Aβ40 fibrils | fibril disruption | – | 2-fold molar excess, pH 7.4, 37 °C, with: preformed Aβ1-40 fibrils | – | ThT fluorescence | decreased
COCCOCCOCCOC(=O)/C(C#N)=C/c1ccc2cc(N3CCOCC3)ccc2c1 | APP Aβ42 aggregates | fluorescence | – | free probe, 5% DMSO in water | – | emission maximum | 530 nm
[11CH3]Nc1ccc(-c2nc3ccc(O)cc3o2)cn1 | APP | binding, PET | Alzheimer's disease patients, white matter | unit not given | baseline: control subjects | effect size of DVR | 3.35

Compound | target | assay | system | conditions | scale | measurement | value
CC[C@H](C)[C@@H]1NC(=O)[C@H]([C@@H](C)O)NC(=O)[C@H](Cc2ccc(O)cc2)NC(=O)[C@H](CCCNC(=N)N)NC(=O)[C@@H]2CCCN2C(=O)[C@H]2CCCN2C(=O)[C@H]([C@@H](C)O)NC(=O)[C@H](C(C)C)NC(=O)[C@H](C(C)C)NC(=O)[C@H](CCCCN)NC(=O)[C@H](CO)NC(=O)[C@@H](CCC(N)=O)NC(=O)[C@H](CO)NC(=O)[C@H](Cc2ccc(O)cc2)NC(=O)[C@H](CO)NC(=O)[C@H](Cc2ccc(O)cc2)NC(=O)[C@@H]2CCCN2C(=O)[C@H](CO)NC(=O)[C@H](CC(C)C)NC(=O)[C@H](CC(C)C)NC(=O)[C@H](C)NC(=O)[C@H](C)NC1=O | APP Aβ40 | amyloid-beta aggregation, dynamic light scattering | – | 14 µM, 37 °C, with: 140 µM amyloid-beta | baseline: amyloid-beta alone, higher = more aggregation | scattered light intensity | ~2 fold
CC(C)C[C@@H]1NC(=O)CN(C)C(=O)CCCCC(=O)NCCCC[C@@H](C(=O)N[C@@H](CCCNC(=N)N)C(N)=O)NC(=O)[C@H](Cc2ccccc2)NC(=O)[C@H](Cc2ccccc2)NC(=O)[C@H](C(C)C)NC1=O | APP monomer | amyloid aggregation, inhibitor, fluorescence | – | 40 µM, pH 7.4 | – | inhibition | 70%
COCCOCCOCCOC(=O)C(C#N)=Cc1ccc(C=Cc2ccc(N(C)C)cc2)cc1 | APP Aβ42 aggregates | binding, fluorescence spectroscopy | PBS | 4 µM, with: pre-aggregated Aβ(1-42) 5 µM | – | emission maximum | 638 nm
CC[C@H](C)[C@H](NC(=O)[C@H](Cc1ccccc1)NC(=O)[C@@H](N)C(C)C)C(=O)N[C@@H](C)C(N)=O | APP | amyloid aggregation, inhibitor, fluorescence | – | 10 µM, 24 h | – | inhibition | 57.2%
CN(C)c1ccc(C=C(C#N)C(=O)OCC(O)CO)cc1 (stereo not shown) | APP Aβ42 aggregates | binding, fluorescence spectroscopy | PBS | 4 µM, with: pre-aggregated Aβ(1-42) 5 µM | baseline: probe without Aβ | fluorescence intensity | 2.2 fold
CC(C)C[C@@H]1NC(=O)CN(C)C(=O)CCCCC(=O)NCCCC[C@@H](C(=O)N[C@@H](CCCNC(=N)N)C(N)=O)NC(=O)[C@H](Cc2ccccc2)NC(=O)[C@H](Cc2ccccc2)NC(=O)c2ccccc2NC1=O | APP Aβ40 fibrils | ThT fluorescence | – | 2-fold molar excess, pH 7.4, 37 °C, with: preformed Aβ1-40 fibrils 40 µM | – | amyloid fibril disruption | 60%
COCCOCCOCCOC(=O)C(C#N)=Cc1ccc(N(C)C)cc1 | APP Aβ42 aggregates | binding, fluorescence spectroscopy | PBS | 4 µM, with: pre-aggregated Aβ(1-42) 5 µM | – | excitation maximum | 435 nm
CC[C@H](C)[C@H](NC(=O)[C@@H](NC(=O)[C@@H](N)C(C)C)C(C)C)C(=O)NCC(N)=O | APP | amyloid aggregation, inhibitor, fluorescence | – | 10 µM, 24 h | – | inhibition | 5.4%
COc1cc(OC)c2c(O)c3c(=O)cc(C)oc3c(-c3c(OC)cc4cc5c(c(O)c4c3OC)C(=O)CC(C)(O)O5)c2c1 (stereo not shown) | APP | thioflavin-T fluorescence | – | 25 µM | baseline: untreated | Aβ aggregation | 27 ± 11.4%
CCN(CC)c1ccc(C=C(C#N)C(=O)OCCOCCOCCOC)cc1 | APP Aβ42 aggregates | binding, fluorescence spectroscopy | PBS | 4 µM, with: pre-aggregated Aβ(1-42) 5 µM | – | emission maximum | 470 nm
CC[C@H](C)[C@H](NC(=O)[C@@H](NC(=O)[C@@H](N)C(C)C)C(C)C)C(=O)N[C@@H](C)C(=O)O | APP | amyloid aggregation, inhibitor, fluorescence | – | 2 µM, 24 h | – | inhibition | 33.9%
N#C/C(=C\c1ccc2cc(N3CCCCC3)ccc2c1)C(=O)OCC(O)CO (stereo not shown) | APP Aβ42 aggregates | fluorescence | – | with: aggregated Abeta42 5 µM | – | emission maximum | 535 nm
COc1cc(C=CC(=O)CC(=O)C=Cc2ccc(OCC(=O)NCCOCCOCCOCC(F)(F)F)c(OC)c2)ccc1O | APP | Aβ aggregation, SDS-PAGE western blot, item: Aβ1-42 75-200 kDa band | – | 30 µM, 24 h, 37 °C, with: Aβ1-42 10 µM | baseline: DMSO | band density | 345 ± 75%
CC(C)C[C@@H]1NC(=O)CN(C)C(=O)CCCC(=O)NCCCC[C@@H](C(=O)N[C@@H](CCCNC(=N)N)C(N)=O)NC(=O)[C@H](Cc2ccccc2)NC(=O)[C@H](Cc2ccccc2)NC(=O)c2ccccc2NC1=O | APP Aβ40 | aggregation, ThT fluorescence | – | 5-fold molar excess, pH 7.4, 37 °C, with: Aβ 40 µM | – | inhibition | ~95%
CC[C@H](C)[C@H](NC(=O)[C@@H](NC(=O)[C@@H](NC(=O)[C@@H](N)C(C)C)C(C)C)[C@@H](C)CC)C(N)=O | APP | amyloid aggregation, inhibitor, fluorescence | – | 4 µM, 24 h | – | inhibition | 0%

Excerpt of the above:
Compound | target | assay | system | conditions | scale | measurement | value
CC(C)C[C@@H]1NC(=O)CN(C)C(=O)CCCC(=O)NCCCC[C@@H](C(=O)N[C@@H](CCCNC(=N)N)C(N)=O)NC(=O)[C@H](Cc2ccccc2)NC(=O)[C@H](Cc2ccccc2)NC(=O)c2ccccc2NC1=O | APP Aβ40 | aggregation, ThT fluorescence | – | 5-fold molar excess, pH 7.4, 37 °C, with: Aβ 40 µM | – | inhibition | ~95%
COCCOCCOCCOC(=O)C(C#N)=Cc1ccc(N(C)C)cc1 | APP Aβ42 aggregates | binding, fluorescence spectroscopy | PBS | 4 µM, with: pre-aggregated Aβ(1-42) 5 µM | – | excitation maximum | 435 nm
